Measurements from different studies.
Each numbered part is a random draw from the data of one study; scales do not carry over between parts.

Sample 1
Target: Phosphate system positive regulatory protein PHO4, full length, GST-tagged (PHO4, Saccharomyces cerevisiae, UniProt P07270, residues 1-312)
Method: competition protein-binding microarray
Molecule type: double-stranded DNA, one strand shown
Matrix: in vitro
Concentration: 2 µM
Setting: whole 60-bp probe, lowest competitor level
Added: Cbf1 competitor, 0.05 µM
Direction: higher = stronger binding
All sequences stand within: … GTCTTGATTCGCTTGACGCTGCTG
Residues (chain): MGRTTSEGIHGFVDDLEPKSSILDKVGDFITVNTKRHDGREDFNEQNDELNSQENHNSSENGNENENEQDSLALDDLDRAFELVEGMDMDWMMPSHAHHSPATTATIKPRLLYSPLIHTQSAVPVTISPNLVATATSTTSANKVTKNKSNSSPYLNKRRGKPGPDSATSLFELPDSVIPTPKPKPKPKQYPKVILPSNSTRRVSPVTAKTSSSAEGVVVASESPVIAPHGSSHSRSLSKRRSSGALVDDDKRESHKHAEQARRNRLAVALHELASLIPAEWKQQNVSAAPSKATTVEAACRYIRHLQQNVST
| Strand | fluorescence intensity [a.u.] |
| --- | --- |
| AAAATCCATTTTTAAAACGTGTGAATGTTTTCCCTG | 11100 |
| TGCAGGTAAGTGACTCACATGCTTTGAAAAGTTCCT | 8210 |
| CGCATTATGTTAAGCATTGCCATTGCGGTAACTTCA | 4070 |
| AGGAGGGGAATTACCGGCGTGGCCGATATTCCTTAT | 6500 |
| CAGCGAGTTCTTTAGCACGCTTCTGTCTTTCAGCAT | 8570 |
| AAATTACTAAGTTGAGAAGTGGGTGACGCCGTATGA | 3980 |
| CGGGGTTAAGTTTGATTAGTGGGTGGCTTGCAGCAG | 4600 |
| TCAAGAAGCAGTTTTATCGTGATGGGTTTCAAATCG | 3580 |
| GAATAGTTTTCTGTACACGTGGAGGTATAGTTCTCA | 16700 |
| CGTCCTAGTGATTTTCACGTGGGGTCCATGAGGAAG | 15800 |
| AAATATCTAAGCCATCACATGACAGCAAGACCCTTT | 6240 |
| AAAGCGGTAATTTGACGAGTGGGTGCAGATATCTAT | 4090 |
| AGCAACGTTTAGTGAACCGTGACAAGTTTGGCCAGC | 5670 |
| CCAGGCACCGAGGTCCATGTGAAAGGAGGCTTTGCG | 5640 |
| ACTGTTATTTTGATGTACATGACAGTACGTTATTCT | 5420 |
| CTTCTGTAAATTTTTCACGTGCGATGACGCGCCCCG | 14800 |
| TGGAGAAAGATTCACCACGTTCACTCAAGATCTTCA | 12400 |
| CTAACGAAGGTTTGTCACGGTACTTACAAGCCAAGT | 3880 |
| CGGGGTTAAGTTTGTCACACTACTTGCTTGCAGCAG | 3950 |

Sample 2
Target: Interferon regulatory factor 5, full length, phosphomimetic (IRF5, Homo sapiens, UniProt Q13568-2, residues 1-514, K96S/S451D/S453D/S456D/S462D)
Method: protein-binding microarray
Molecule type: double-stranded DNA, one strand shown
Matrix: in vitro
Concentration: 250 nM
Setting: 60-bp whole probe
Added: salmon DNA 0.4 mg/ml
Relative to: random background probes
Direction: higher = stronger binding
All sequences stand within: GCCTAGCAC … GTCTTGATTCGCTTGACGCTGCTG
| Strand | log fluorescence [z-score] |
| --- | --- |
| TGAGATTTCCATTATTGCTTGTGCTAG | 0.633 |
| TTAGGTGTCCTTTTCCTTTAGTGCTAG | 0.331 |
| TTTGGACTGCTTTTCCTTTAGTGCTAG | 0.252 |
| CCGTAGCTTCCTTTCGCCGCGTGCTAG | 1.38 |
| TTAGGACTTGGGTTTCGGTTAGTGCTA | 7.66 |
| TTAGGTCTCCTTTTTCTTTAGTGCTAG | 0.482 |
| GACGATATCAGTCTCGACACGTGCTAG | 1.37 |
| TTAGGTATCGGTTTCGGTTTGTGCTAG | 10.3 |
| GATGGACTGGGTTTCGGGACGTGCTAG | 2.2 |
| TCATTTTTTTTTCCCTGACTGTGCTAG | 0.973 |
| GACGATTTCAGTTCCGAGAGGTGCTAG | 1.29 |
| TCAGTCCTCACTTCCTTACTGTGCTAG | 0.318 |
| GACGGTATCGACTTTCGGAACGTGCTA | 7.54 |
| TTCGGTTTCGGTTTCGGTTAGTGCTAG | 12.4 |
| TTAGATACCAGACTGGATTAGTGCTAG | 0.101 |
| GAGGGACTGGGTTTCGGGACGTGCTAG | 2.19 |
| GACGGACTTGGTCTCGGGACGTGCTAG | -0.471 |
| GACGAACTGGGGTTTCGAGATGTGCTA | 1.39 |
| TCACTTCTGGACTGTTTGACTGTGCTA | 0.394 |

Sample 3
Target: Prothrombin, mature alpha-thrombin (F2, Homo sapiens, UniProt P00734)
Method: aptamer microarray, sandwich
Molecule type: DNA with 2'F-ANA
Matrix: in vitro
Concentration: 200 nM
Setting: whole 15-mer aptamer, many near background
Added: Cy3 exosite-II aptamer, 400 nM
Direction: higher = stronger binding
Strand: GGTTGGTGTGGTTGG
| Modification | mean fluorescence intensity [a.u.] |
| --- | --- |
| 2'F-ANA at 1 4 7 9 11 13 15 | 83.9 |
| 2'F-ANA at 1 2 3 4 5 6 8 9 13 15 | 49.8 |
| 2'F-ANA at 1 4 9 10 11 12 13 14 15 | 46.7 |
| 2'F-ANA at 2 6 8 9 10 11 13 | 93.5 |
| 2'F-ANA at 6 7 8 10 13 15 | 140 |
| 2'F-ANA at 1 4 6 7 8 9 10 12 13 15 | 66.6 |
| 2'F-ANA at 4 6 7 9 10 12 13 | 79.9 |
| 2'F-ANA at 8 10 12 13 | 200 |
| 2'F-ANA at 1 6 7 8 9 10 12 13 15 | 71.7 |
| 2'F-ANA at 5 7 8 9 11 13 15 | 72.6 |
| 2'F-ANA at 2 4 6 8 10 11 12 13 | 86.5 |
| 2'F-ANA at 1 4 8 11 12 14 | 57.8 |
| 2'F-ANA at 1 2 3 4 5 8 9 13 14 | 44 |
| 2'F-ANA at 1 2 4 5 6 8 9 10 11 12 | 80.3 |
| 2'F-ANA at 1 2 4 5 6 10 11 12 13 14 15 | 47.5 |
| 2'F-ANA at 1 2 4 5 8 9 10 14 15 | 46.9 |

Sample 4
Target: RNA binding protein fox-1 homolog 2, RRM domain, GST-SBP tag (RBFOX2, Homo sapiens, UniProt O43251-10, residues 100-194)
Method: RNA Bind-n-Seq
Molecule type: RNA
Matrix: in vitro
Concentration: 365 nM
Setting: natural RNA segment, single round, ends assumed
Relative to: no-protein control
Direction: higher = stronger binding
All sequences stand within: GGGAGUUCUACAGUCCGACGAUC … UGGAAUUCUCGGGUGCCAA
Target sequence (chain): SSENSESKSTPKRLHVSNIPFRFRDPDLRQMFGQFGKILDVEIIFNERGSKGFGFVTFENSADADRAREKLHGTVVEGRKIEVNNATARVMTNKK
| Strand | RBNS enrichment (R) |
| --- | --- |
| GUAUAGGAGACUGACGGGGAGCAGAAAGGUCCUGACUCCCUCCCUCCCUGUCACCCUGGACCCGUCCAGGCCAGCGCACCUUCUUUCUUACUAGUCUGUUUUACUGGCUG | 0.358 |
| GUUUUCAUUAACUGCAGUAUAUACAGUUCACUACAUAUGGGUUGUUUGAGUUUUUUGUGUGCUGUAUUUCUUUCUGUUUUUUAAUACCUGGUUUUGUACAUAUCUAACUC | 1.78 |
| GAUGAGAAAUAAUUCACUUAAUAUCAGAAAUAUUUUCCAAACACUUUCCUUUAUUUUUUCUUCUGAAUAAAUAGAAAACCAACAGUUUGAUUUCCUUUUCCCUUAAAGGA | 0.401 |
| UGGAGAUUAGAACUGUUAGGAGCGCCACUCCCUGCCAUGUUGUCCUCGUACGCAGGCAGAUGACACCUUAUGCCAACAGGGACGCCUGUGAGGCCGAGACCUUGAUGGGA | 0.438 |
| GCCUCUGCCUCCCGAGUGCUGGGAUUAAAGGCGUGCGCCACCACGCCCGGCUCUGUUCAUCCUUUUAAAGGUAGAUCUUUUAUAACAUCCUUUGCCACCUUGAGAUGAUU | 0.511 |
| GGGCAGGAGAACCCCUCGCUUUCCCCACCAUGGGAGCAUUUGCUGGGAAGUGUCUUUUCAGGACUUAAAUCACCGGAGCCACUGUGGUAGCUUGUGGGGGUGGGUGGGCA | 1.14 |
| UUCCAUCUGCUGUACUAACCAGGAGCCCUCCCAUGGAGAUGCAGCCCCCUGUCUCUCCUCAGCAGUCUGAGUGCAACCCCGUCGGUGCUCUGCAGGAGCUGGUGGUGCAA | 0.385 |
| UGUCUCCUUCCUGGAGAGGCUAUUAGGAGCCUUGUUGCUGGGGUGCAUAUGCUUAUAUGUGAAUGUGUCCACAAAUCCCACCCCCUCUCCGUUCUGUCCCCCAUUCAAGG | 0.39 |

For quick reference, copied from above (sample 2):
| Strand | log fluorescence [z-score] |
| --- | --- |
| TTTGGACTGCTTTTCCTTTAGTGCTAG | 0.252 |
| CCGTAGCTTCCTTTCGCCGCGTGCTAG | 1.38 |
| TTAGGACTTGGGTTTCGGTTAGTGCTA | 7.66 |
| TTAGGTCTCCTTTTTCTTTAGTGCTAG | 0.482 |
| GACGATATCAGTCTCGACACGTGCTAG | 1.37 |
| TTAGGTATCGGTTTCGGTTTGTGCTAG | 10.3 |
| GATGGACTGGGTTTCGGGACGTGCTAG | 2.2 |
| TCATTTTTTTTTCCCTGACTGTGCTAG | 0.973 |
| GACGATTTCAGTTCCGAGAGGTGCTAG | 1.29 |
